Assay results pooled from the literature.
± gives the spread as reported.

The inhibition of `AGEDPHGYFLPGQFA` is reported as 47% (RANTES expression; peptide, peritoneal macrophages, C57BL/6 mouse; 1 pM, 15 h, pretreated 1 h, optimal dose, together with: LPS 100 ng/ml + IFN-γ 20 ng/ml).
The inhibition of `C[n+]1cccc2c(N)cccc21` is reported as about 40% (refers to: 1-MNA; mouse, muscle; subcutaneous, 25 mg/kg once daily for 5 days, 1 h post-dose; baseline: 1-MNA level at 8 h post-dose).
`O=C(NCc1ccc(CNS(=O)(=O)c2cccc(Cl)c2)cc1)c1ccc(F)cc1` has an inhibition of about 20% (carrageenan paw oedema; mouse C57BL/6J female; ip, 10 mg/kg daily, 74 h; baseline: vehicle).
`C[C@]12CCCN1CC1=NNC(=O)c3cc(F)cc4[nH]c2c1c34` gave an inhibition of about 81% (PARylation, refers to: PAR; MDA-MB-436 xenograft, mouse, tumour; 1.5 mg/kg single dose, throughout first 12 h).
For `CNC(=O)c1cc(Oc2ccc(NC(=O)Nc3ccc(Cl)c(C(F)(F)F)c3)cc2)ccn1`, the inhibition was 65.5 ± 9.07% (tumour weight; nude mouse, subcutaneous MHCC97H; oral, 2 mg/kg every 2 days, 10 doses, 21 days, cells transfected).
The inhibition of `AQAGEDPHGYFLPGQFAFS` is reported as 21% (TNF-α expression; peptide, peritoneal macrophages, C57BL/6 mouse; 100 pM, 15 h, pretreated 1 h, optimal dose, together with: LPS 100 ng/ml + IFN-γ 20 ng/ml).
`O=C(c1cc(Cc2n[nH]c(=O)c3ccccc23)ccc1F)N1CCN(C(=O)C2CC2)CC1` gave an inhibition of about 100% (PARylation, refers to: PAR; MDA-MB-436 xenograft, mouse, tumour; 25 mg/kg single dose, initial 0.5 h).
With `PHGYFLPGQFAFS` the inhibition was 32% (RANTES expression; peptide, peritoneal macrophages, C57BL/6 mouse; 100 pM, 15 h, pretreated 1 h, optimal dose, together with: LPS 100 ng/ml + IFN-γ 20 ng/ml).
For `O=C(NCc1ccc(CNS(=O)(=O)c2cccc(C(F)(F)F)c2)cc1)c1ccc(F)cc1`, the inhibition was about 20% (carrageenan paw oedema; mouse C57BL/6J female; ip, 10 mg/kg daily, 74 h; baseline: vehicle).

Repeated from above:
`C[C@]12CCCN1CC1=NNC(=O)c3cc(F)cc4[nH]c2c1c34` gave an inhibition of about 81% (PARylation, refers to: PAR; MDA-MB-436 xenograft, mouse, tumour; 1.5 mg/kg single dose, throughout first 12 h).
